{"data": "Assay results of several laboratories", "note": "Numbered parts are unrelated; each lists some results of a single study. Positions count from the first letter of the parent shown."}
{"data": "Block 1", "target": "PABPC1L2, full length, GST fusion (mouse, UniProt A0ABA7IW68)", "technique": "RNAcompete", "form": "RNA", "sample": "in vitro", "concentration": "20 nM", "setting": "7-mer, probes averaged, single round", "relative to": "mean of 7-mers", "reading": "higher = stronger binding", "Target sequence (chain)": "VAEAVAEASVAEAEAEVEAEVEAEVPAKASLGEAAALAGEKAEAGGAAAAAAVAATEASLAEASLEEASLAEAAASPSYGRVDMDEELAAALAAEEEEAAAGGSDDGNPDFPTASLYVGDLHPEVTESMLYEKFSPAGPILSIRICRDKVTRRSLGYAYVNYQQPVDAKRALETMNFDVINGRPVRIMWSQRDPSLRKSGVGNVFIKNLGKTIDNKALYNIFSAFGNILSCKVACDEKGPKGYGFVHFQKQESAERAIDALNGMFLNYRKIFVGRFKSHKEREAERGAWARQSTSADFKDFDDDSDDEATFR"}
{"Oligonucleotide": "CAGUGCU", "7-mer Z-score": -0.182}
{"Oligonucleotide": "UGCACUG", "7-mer Z-score": -0.173}
{"Oligonucleotide": "GGUUCCG", "7-mer Z-score": -0.0917}
{"Oligonucleotide": "CUGACCG", "7-mer Z-score": -0.162}
{"Oligonucleotide": "AGAUGCG", "7-mer Z-score": -0.155}
{"Oligonucleotide": "GGGAAAC", "7-mer Z-score": 0.196}
{"Oligonucleotide": "GUUCCUG", "7-mer Z-score": -0.233}
{"Oligonucleotide": "AGCCUCA", "7-mer Z-score": -0.257}
{"data": "Block 2", "target": "Probable WRKY transcription factor 50, DNA-binding domain (WRKY50, Arabidopsis thaliana, UniProt Q8VWQ5, residues 99-173)", "technique": "DNA-protein interaction ELISA", "form": "double-stranded DNA, one strand shown", "sample": "in vitro, bacterial lysate", "concentration": "not given", "setting": "whole dsDNA probe, crude lysate protein", "relative to": "highest signal in screen", "reading": "higher = stronger binding", "Residues (chain)": "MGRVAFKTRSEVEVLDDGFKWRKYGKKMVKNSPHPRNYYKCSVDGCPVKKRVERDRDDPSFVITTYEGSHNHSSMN"}
{"Oligonucleotide": "AAAAAATTAATCCATGCTTATGTCTGAAAA", "relative absorbance": "31.8 % of maximum"}
{"Oligonucleotide": "AAAAAACTCGACATAGAATGCGGAAAAAAA", "relative absorbance": "28.3 % of maximum"}
{"Oligonucleotide": "AAAAAATGGTACTCAGAGTTATAGACAAAA", "relative absorbance": "25.1 % of maximum"}
{"Oligonucleotide": "AAAAAATATCTGATCCAATTTAGGTCAAAA", "relative absorbance": "20.1 % of maximum"}
{"Oligonucleotide": "AAAAAATGTCGGCTGTTAGGATATCGAAAA", "relative absorbance": "10.7 % of maximum"}
{"Oligonucleotide": "AAAAAAACTCAACTAGTGAACCACCAAAA", "relative absorbance": "18.3 % of maximum"}
{"Oligonucleotide": "AAAAAAATCACGGTTCGACCTCCAGCAAAA", "relative absorbance": "12.4 % of maximum"}
{"Oligonucleotide": "AAAAAACCGATCATCACATATCACTGAAAA", "relative absorbance": "13.4 % of maximum"}
{"data": "Mixed results", "P1": "viral docking peptide; KKAKRRLFTISDS"}
{"Substance": "KRT19 (Homo sapiens, UniProt P08727)", "tested on": "KRT7 (Homo sapiens, UniProt P08729)", "assay": "cross-linking MS", "setting": "hits only", "measurement": "interaction screen", "value": "cross-linked"}
{"Substance": "P1 S11A", "tested on": "CCNB1, cyclin fold, Cln2 fusion (human)", "assay": "yeast growth competition, sequencing", "test system": "yeast", "setting": "weak parent motif", "scale": "relative to: not given, higher = stronger binding", "measurement": "normalised enrichment score", "value": 0.919}
{"note": "Some of these lines once more (block 1):"}
{"Oligonucleotide": "AGCCUCA", "7-mer Z-score": -0.257}
{"Oligonucleotide": "GGUUCCG", "7-mer Z-score": -0.0917}
